Measurements of several laboratories.
Each line is one published result; not all experiments were run side by side. ± marks the error that the study gave.

CC(C)(Sc1ccncc1-c1ccc(C#N)c2ccccc12)C(=O)O — Cmax (human male, plasma; oral, 10 mg once daily, day 7 or 21, geometric mean): 14.6 ng/mL
CC(C)(Sc1ccncc1-c1ccc(C#N)c2ccccc12)C(=O)O — Cmax (human, plasma; oral, 5 mg, with: febuxostat 40 mg): 7.2 ng/mL
Nc1ccc(-c2nc([C@H]3CCc4cc(-c5cc(Cl)ccc5-n5cnnn5)cc(=O)n43)c(F)[nH]2)c(F)n1 — Cmax (human, plasma; oral, 80 mg once daily, fed, day 1): 553 ng/mL
O=C(NC[C@H](O)CO)c1ccncc1Nc1ccc(I)cc1F — Cmax (human; oral, 60 mg, single dose with FOLFIRI): 386 ng/mL
CS(=O)(=O)n1cc2c(n1)CN([C@H]1CO[C@H](c3cc(F)ccc3F)[C@@H](N)C1)C2 — Cmax (healthy male human, plasma; oral, 100 mg once weekly, day 15, fasted, geometric mean): 2400 nM
C[C@@H](Oc1cc(-c2cnn(C3CCNCC3)c2)cnc1N)c1c(Cl)ccc(F)c1Cl — Cmax (healthy human, plasma; oral, 250 mg single fasted, geometric mean): 118 ng/mL
Cc1ccc(NC(=O)c2ccc(CN3CCN(C)CC3)cc2)cc1Nc1nccc(-c2cncc(-c3oncc3C)c2)n1 — Cmax (older healthy human adults, plasma; oral, 12.5 mg single dose, fed, mean): 447 ng/mL
O=C(c1cccnc1-c1ccncc1)N1CCC(O)(Cc2ccccc2)CC1 — Cmax (healthy human, plasma; oral, 100 mg once daily, day 14, arithmetic mean): 481 ng/mL
O=C(c1ccc(OCCN2CCCCC2)cc1)c1c(-c2ccc(O)cc2)sc2cc(O)ccc12 — Cmax (healthy humans, plasma; oral, 60 mg, with: acute green tea): 0.13 nM
O=C(CCCCCCC(=O)Nc1ccccc1)NO — Cmax (human, serum; oral, 300 mg three times daily, 3 days, median, with: idarubicin): 998 nM
O=C(c1cc(Cc2n[nH]c(=O)c3ccccc23)ccc1F)N1CCN(C(=O)C2CC2)CC1 — Cmax (human patients, plasma; oral, 50 mg, day 1, alone): 1800 ± 1100 ng/mL
O=c1[nH]cc(F)c(=O)[nH]1 — Cmax (human, plasma; intravenous, 2400 mg/m^2 maintenance, cycle 1 without vorinostat, twice-daily cohort): 11200 ± 5550 ng/mL
N#C[C@@H]1C[C@@H]2C[C@@H]2N1C(=O)[C@@H](N)C12CC3CC(CC(O)(C3)C1)C2 — Cmax (healthy human subjects, plasma; oral, 10 mg, day 10, geometric mean, with: diltiazem extended-release 360 mg): 87 ng/mL
C#Cc1cccc(Nc2ncnc3cc(OCCOC)c(OCCOC)cc23)c1 — Cmax (human, plasma; oral, day 29, normalised to 150 mg dose, with: dovitinib): 317 ± 303 ng/mL
COc1cc(N2CCC(N3CCN(C)CC3)CC2)ccc1Nc1ncc(Cl)c(Nc2ccccc2P(C)(C)=O)n1 — Cmax (healthy humans, plasma; oral, 180 mg, alone, single dose): 863 ng/mL
O=C(Cc1cccc(OC(F)(F)F)c1)Nc1ccc(CCCCc2nnc(NC(=O)Cc3ccccn3)s2)nn1 — Cmax (human patients, plasma; oral, 400 mg three times daily fasted, cycle 1 day 15 steady state): 818 ng/mL
C=C(C)[C@@H]1CC[C@]2(NCCN3CCS(=O)(=O)CC3)CC[C@]3(C)[C@H](CC[C@@H]4[C@@]5(C)CC=C(C6=CC[C@@](CF)(C(=O)O)CC6)C(C)(C)[C@@H]5CC[C@]43C)[C@@H]12 — Cmax (healthy human volunteers, plasma; oral, 200 mg, tablet, fasted state, mean): 449 ng/mL
CN1CCN(C2=Nc3cc(Cl)ccc3Nc3ccccc32)CC1 — Cmax (human, plasma; concentration not given, clinical literature data): 2700 nM
COc1ccnc(C[S+]([O-])c2nc3ccc(OC(F)F)cc3[nH]2)c1OC (centres unmarked) — Cmax (human, CYP2C19 ultrarapid metabolizers, plasma; oral, 40 mg/day, day 5): 4140 ng/mL
COc1cc2ncnc(Nc3ccc(F)c(Cl)c3)c2cc1OCCCN1CCOCC1 — Cmax (human, plasma; oral, 250 mg, with: vorinostat 300 mg): 240 ± 98 ng/mL
O=C([O-])CCCCCCCNC(=O)c1ccccc1O.[Na+] — Cmax (human, normal hepatic function, plasma; oral, dose not given, day 10, geometric mean): 1310 ng/mL
COCCCCn1c(C(=O)N(CC(C)C)[C@@H]2CNC[C@H](C(=O)N3CCOCC3)C2)nc2ccccc21 — Cmax (non-elderly human, plasma; oral, 160 mg once daily, day 1): 2020 ng/mL
COc1cc(Nc2ncc3c(n2)-c2ccc(Cl)cc2C(c2c(F)cccc2OC)=NC3)ccc1C(=O)O — Cmax (human patients, plasma; oral, 40 mg twice daily, combination with other drug): 1310 ± 287 ng/mL
CC(C)C[C@H](NC(=O)[C@H](CCc1ccccc1)NC(=O)CN1CCOCC1)C(=O)N[C@@H](Cc1ccccc1)C(=O)N[C@@H](CC(C)C)C(=O)[C@@]1(C)CO1 — Cmax (human patients, plasma; intravenous infusion 10 min, 20 mg/m^2, day 1 of cycle 1, KRd regimen): 1540 ± 391 ng/mL
CC(C)NC[C@@H](C(=O)N1CCN(c2ncnc3c2[C@H](C)C[C@H]3O)CC1)c1ccc(Cl)cc1 — Cmax (human, hepatic impairment Moderate (Child-Pugh), plasma; oral, 100 mg single, geometric mean): 89.1 ng/mL
Cn1ncc(Cl)c1-c1cc(C(=O)N[C@H](CN)Cc2ccc(F)c(F)c2)oc1Cl — Cmax (human patients, plasma; oral, 20 mg, single dose, fasting): 14.6 ng/mL
CCCCCCCCCCCCCCC[C@H](O)[C@@H](N)CO — Cmax (human, phase I, plasma; intravenous, 600 mg/m^2, day 1, monotherapy): 23900 nM
Cc1cc(-c2nnc(N)nc2-c2ccc(F)cc2)cc(Cl)n1 — Cmax (human patients, plasma; oral, 200 mg capsule, single dose, arithmetic mean): 943 ng/mL
CCOCCn1c(C2CCN(CCc3ccc(C(C)(C)C(=O)O)cc3)CC2)nc2ccccc21 — Cmax (healthy human subjects, plasma; oral, 20 mg, geometric LS mean): 135 ng/mL
CNC(=O)c1c(C)oc2cc(Oc3ncnc4cc(OC)c(OC)cc34)ccc12 — Cmax (human, plasma; oral, 5 mg, fasted): 117 ng/mL
COc1ccc2nc([S@@+]([O-])Cc3ncc(C)c(OC)c3C)[nH]c2c1 — Cmax (human, CYP2C19 rapid metabolizers, plasma; oral, 40 mg/day, day 1): 3340 ± 3110 ng/mL
Cc1cc(C)c2c(c1)[C@@H](N(Cc1cc(C(F)(F)F)cc(C(F)(F)F)c1)c1nnn(C)n1)CCCN2C[C@H]1CC[C@H](C(=O)O)CC1 — Cmax (healthy humans, plasma; oral, 100 mg, geometric mean, with: ketoconazole 400 mg): 611 ng/mL
CO[C@H]1C[C@@H]2CC[C@@H](C)[C@@](O)(O2)C(=O)C(=O)N2CCCC[C@H]2C(=O)O[C@H]([C@H](C)C[C@@H]2CC[C@@H](OC(=O)C(C)(CO)CO)[C@H](OC)C2)CC(=O)[C@H](C)/C=C(\C)[C@@H](O)[C@@H](OC)C(=O)[C@H](C)C[C@H](C)/C=C/C=C/C=C/1C — Cmax (human, whole blood; intravenous, 60 mg/m^2 weekly, cycle 1, median, with: valproic acid): 1220 ng/mL
CCOc1cc([C@@H](CS(C)(=O)=O)N2C(=O)c3cccc(NC(C)=O)c3C2=O)ccc1OC — Cmax (healthy human, both sexes, plasma; oral, 30 mg single dose, without rifampicin): 290 ng/mL
CNc1nc(Nc2ccc(-n3cnc(C)n3)c(OC)c2)nc2c1CC[C@H]2c1ccc(F)cc1 — Cmax (human; oral, 100 mg once daily, day 28, multiple ascending dose, geometric mean): 670 ng/mL
COc1c(OCCCN2CCOCC2)ccc2c1N=C(NC(=O)c1cnc(N)nc1)N1CCN=C21 — Cmax (human cancer patients, plasma; intravenous, 0.4 mg/kg weekly, cycle 1 day 1, compound alone, geometric mean): 118 ng/mL
Cc1cccc(C)c1N(CC(=O)Nc1ccc(-c2ncon2)cc1)C(=O)C1CCS(=O)(=O)CC1 — Cmax (human male, plasma; oral, 400 mg single dose, arithmetic mean, alone): 1900 ng/mL
CC#CC(=O)N1CC[C@@H](n2c(=O)n(-c3ccc(Oc4ccccc4)cc3)c3c(N)ncnc32)C1 — Cmax (human, plasma; oral, 300 mg twice daily, cycle 1 day 1, fasting): 886 ng/mL
CC(C)[C@@H](C)[C@@]1(C)CC[C@]2(C)[C@H]3CC[C@@H]4[C@@]5(COC[C@@]4(C)[C@@H](OC[C@](C)(N)C(C)(C)C)[C@H](n4ncnc4-c4ccncc4)C5)C3=CC[C@@]2(C)[C@@H]1C(=O)O — Cmax (human, both sexes, plasma; oral, 1250 mg day 1, then 750 mg days 2 and 3, day 3, geometric mean): 934 ng/mL
CCCCC1(CCCC)CN(c2ccccc2)c2cc(SC)c(OCC(=O)N[C@@H](C(=O)NCC(=O)O)c3ccccc3)cc2S(=O)(=O)C1 — Cmax (LC-MS/MS; human, plasma; oral, 20 mg, single dose, fasted): 3.17 ng/mL
O=C(O)CNC(=O)c1c(O)c2ccccc2n(OCC2CC2)c1=O — Cmax (LC-MS/MS; human, blood; oral, 300 mg multiple doses): 2340 ± 788 ng/mL
COc1cc(Nc2ncc3c(n2)-c2ccc(Cl)cc2C(c2c(F)cccc2OC)=NC3)ccc1C(=O)O — Cmax (human, plasma; oral, 20 mg twice daily, day 7, steady state geometric mean): 1280 nM
CON(C)C(=O)N1N=C(c2cc(F)ccc2F)S[C@@]1(CCCN)c1ccccc1 — Cmax (human; intravenous, 1.2 mg/m^2, cycle 1 day 3, geometric mean): 29.8 ng/mL
NS(=O)(=O)OC[C@@H]1C[C@@H](n2ccc3c(N[C@H]4CCc5ccccc54)ncnc32)C[C@@H]1O — Cmax (human; intravenous, 15 mg/m^2 single dose, day 8, with: itraconazole): 193 ng/mL
CCOc1ccc(Cc2cc([C@@H]3S[C@H](CO)[C@@H](O)[C@H](O)[C@H]3O)c(OC)cc2C)cc1 — Cmax (human, plasma; oral, 5 mg/day, day 7, multiple dose before breakfast): 248 ± 45.1 ng/mL
CS(=O)(=O)Nc1ccc(C(=O)O[C@@H](Cc2c(Cl)c[n+]([O-])cc2Cl)c2ccc(OC(F)F)c(OCC3CC3)c2)cc1OCC1CC1 — Cmax (human, plasma; inhaled, 1600 µg once daily, day 7, single-dose dry powder inhaler): 1.97 ng/mL
C=C(C)[C@@H]1CC[C@]2(NCCN3CCS(=O)(=O)CC3)CC[C@]3(C)[C@H](CC[C@@H]4[C@@]5(C)CC=C(C6=CC[C@@](CF)(C(=O)O)CC6)C(C)(C)[C@@H]5CC[C@]43C)[C@@H]12 — Cmax (human, plasma; oral, 200 mg multiple doses, day 1): 614 ng/mL
C=CC(=O)Nc1cc(Nc2ncc(C(=O)OC(C)C)c(-c3cn(C)c4ccccc34)n2)c(OC)cc1N(C)CCN(C)C — Cmax (human, fasted; oral, 80 mg single dose, geometric mean): 14.7 ng/mL
CNC(=O)c1ccc(-c2cnc3ncc(Cc4ccc5ncccc5c4)n3n2)cc1F — Cmax (healthy human subjects, plasma; oral, 400 mg, geometric mean, alone): 3070 ng/mL
CNC(=O)c1ccc(-c2cnc3ncc(Cc4ccc5ncccc5c4)n3n2)cc1F — Cmax (human mild hepatic impairment; oral, 200 mg single dose, adjusted geometric mean): 1260 ng/mL
CC(C)(Sc1ccncc1-c1ccc(C#N)c2ccccc12)C(=O)O — Cmax (humans, male, normal renal function, fasted, plasma; oral, 15 mg): 16.7 ng/mL
COC(=O)c1ccc2c(c1)NC(=O)/C2=C(\Nc1ccc(N(C)C(=O)CN2CCN(C)CC2)cc1)c1ccccc1 — Cmax (human, hepatic impairment Child-Pugh B, plasma; oral, 100 mg single dose, fed, adjusted geometric mean): 59.4 ng/mL
CNC(=O)c1cc(Oc2ccc(NC(=O)Nc3ccc(Cl)c(C(F)(F)F)c3)cc2)ccn1 — Cmax (human patients, plasma; oral, 400 mg twice daily, day -1, alone, steady state): 12500 nM
